Published values gathered from unrelated publications.
Lines come from different studies, so protocols differ. “And” joins repeats or separate records; there may be more than shown. ± marks the error that the study gave.
Effect on: enzyme activity
GBA1: Lysosomal acid glucosylceramidase (GBA1, Homo sapiens, UniProt P04062)
UniProt P04062, sequence (whole entry, unmodified, looked up): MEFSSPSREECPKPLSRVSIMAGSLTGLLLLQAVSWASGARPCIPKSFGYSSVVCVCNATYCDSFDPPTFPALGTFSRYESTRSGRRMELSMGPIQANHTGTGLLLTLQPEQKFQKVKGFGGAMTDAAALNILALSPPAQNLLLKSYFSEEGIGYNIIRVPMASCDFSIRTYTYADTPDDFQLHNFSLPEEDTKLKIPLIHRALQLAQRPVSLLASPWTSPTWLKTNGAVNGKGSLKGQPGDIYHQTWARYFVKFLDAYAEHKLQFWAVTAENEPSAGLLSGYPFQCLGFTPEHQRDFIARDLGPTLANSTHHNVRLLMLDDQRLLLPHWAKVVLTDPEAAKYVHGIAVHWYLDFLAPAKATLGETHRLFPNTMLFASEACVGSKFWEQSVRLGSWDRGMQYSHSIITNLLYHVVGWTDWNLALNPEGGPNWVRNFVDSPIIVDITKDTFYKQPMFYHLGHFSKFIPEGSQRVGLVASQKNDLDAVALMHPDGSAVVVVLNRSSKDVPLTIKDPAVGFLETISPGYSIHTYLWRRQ
GBA1 R534H: Lysosomal acid glucosylceramidase (GBA1, Homo sapiens, UniProt P04062, R534H)

SMILES | target | test | conditions | measurement | value
CCCCOP(=O)(Cc1ccccc1)O[C@@H]1O[C@H](CO)[C@@H](O)[C@H](O)[C@H]1F (mixture of isomers) | GBA1 | irreversible inhibitor | pH 5.5, 37 °C, added: 2,4-dinitrophenyl beta-D-glucopyranoside | Ki | 742 µM
CC1=CC(C)=[N+]2C1=C(CCCCc1cn(C[C@H]3O[C@@H](O/C(=N\c4ccccc4)C(F)(F)F)[C@H](F)[C@@H](O)[C@@H]3O)nn1)c1c(C)cc(C)n1[B-]2(F)F | GBA1 R534H | inhibitor | pH 5.2, added: 4MU-β-D-Glc substrate | IC50 | 5.46 ± 0.13 µM
CCCCCCCCOP(=O)(Cc1ccccc1)O[C@@H]1O[C@H](CO)[C@@H](O)[C@H](O)[C@H]1F (stereo partly shown) | GBA1 | irreversible inhibitor | pH 5.5, 37 °C, added: 2,4-dinitrophenyl beta-D-glucopyranoside | Ki | 101 µM
CC(OCCCCCN1C[C@H](O)[C@@H](O)[C@H](O)[C@H]1CO)C(C)(C)C (stereo partly shown) | GBA1 R534H | inhibitor | recombinant Cerezyme, added: 4MU-β-D-glucopyranoside | Ki | 7.3 µM
OC[C@@H]1[C@@H](O)[C@H](O)[C@@H](O)[C@H]2O[C@@H]12 | GBA1 R534H | inhibitor | 30 min preincubation, pH 5.2, 37 °C, added: 4-MU-β-Glc | IC50 | > 100 µM
COc1ccc(C2=[N+]3C(=C(CCCCc4cn(C[C@@H]5[C@@H](O)[C@H](O)[C@@H](O)[C@@H]6O[C@H]56)nn4)c4ccc(-c5ccc(OC)cc5)n4[B-]3(F)F)C=C2)cc1 | GBA1 R534H | inhibitor | pH 5.2, added: 4MU-β-D-Glc substrate | IC50 | 0.00194 ± 8e-05 µM
OC[C@@H]1[C@@H](O)[C@H](O)[C@@H](O)CN1CCCCCOCC1CCCO1 (stereo partly shown) | GBA1 R534H | inhibitor | recombinant Cerezyme, added: 4MU-β-D-glucopyranoside | Ki | 122 µM
OC[C@H]1c2[nH]cnc2[C@H](O)[C@@H](O)[C@@H]1O | GBA1 R534H | inhibitor | pH 6.8 | Ki | ~3.9 µM and 3.9 µM
CCCCCCCCCCCCNP(=O)(Oc1ccccc1)O[C@@H]1O[C@H](CO)[C@@H](O)[C@H](O)[C@H]1F (mixture of isomers) | GBA1 | irreversible inhibitor | pH 5.5, 37 °C, added: 2,4-dinitrophenyl beta-D-glucopyranoside | Ki | 22.2 µM
CC(C)(C)COCCCCCN1C[C@H](O)[C@@H](O)[C@H](O)[C@@H]1CO | GBA1 R534H | inhibitor | recombinant Cerezyme, added: 4MU-β-D-glucopyranoside | Ki | 120 µM
CCCCCCCCOP(=O)(CCCCCCCC)O[C@@H]1O[C@H](CO)[C@@H](O)[C@H](O)[C@H]1F (mixture of isomers) | GBA1 | irreversible inhibitor | pH 5.5, 37 °C, added: 2,4-dinitrophenyl beta-D-glucopyranoside | Ki | 377 µM
CC(C)COCCCCCN1C[C@H](O)[C@@H](O)[C@H](O)[C@@H]1CO | GBA1 R534H | inhibitor | recombinant Cerezyme, added: 4MU-β-D-glucopyranoside | Ki | 1220 µM
OC[C@@H]1[C@@H](O)[C@H](O)[C@@H](O)c2nccn21 | GBA1 R534H | inhibitor | pH 6.8 | Ki | 0.07 µM

Excerpt of the above:
SMILES | target | test | conditions | measurement | value
CC(C)(C)COCCCCCN1C[C@H](O)[C@@H](O)[C@H](O)[C@@H]1CO | GBA1 R534H | inhibitor | recombinant Cerezyme, added: 4MU-β-D-glucopyranoside | Ki | 120 µM
CCCCCCCCOP(=O)(CCCCCCCC)O[C@@H]1O[C@H](CO)[C@@H](O)[C@H](O)[C@H]1F (mixture of isomers) | GBA1 | irreversible inhibitor | pH 5.5, 37 °C, added: 2,4-dinitrophenyl beta-D-glucopyranoside | Ki | 377 µM
